Results collected from several papers.
Parts stem from different laboratories: compare values within a part only.
Chain of UniProt Q07955 (1-220, looked up): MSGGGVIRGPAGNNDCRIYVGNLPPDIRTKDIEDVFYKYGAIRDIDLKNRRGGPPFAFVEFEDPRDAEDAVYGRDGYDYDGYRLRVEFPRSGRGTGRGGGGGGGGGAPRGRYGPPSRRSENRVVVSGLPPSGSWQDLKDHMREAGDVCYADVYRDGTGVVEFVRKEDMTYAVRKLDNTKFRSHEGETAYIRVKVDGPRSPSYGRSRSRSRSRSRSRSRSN

Sample 1 — technique: protein binding microarray; molecule type: double-stranded DNA, one strand shown; matrix: in vitro; concentration: not given; baseline: not given; reading: higher = stronger binding; quantity: E-score
Target: Histone acetyltransferase KAT6A, winged helix 1, GST fusion (KAT6A, Homo sapiens, UniProt Q92794, residues 1-85)
Notes: 8-mer, flanks averaged, mean of 2 arrays, mostly near background
Construct (chain): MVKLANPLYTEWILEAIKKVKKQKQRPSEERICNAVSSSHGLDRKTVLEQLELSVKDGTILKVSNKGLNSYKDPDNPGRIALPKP
AGGCCTTC: -0.216
ATGCGGTA: 0.258
CACTAGTC: -0.11
GGTAATGA: -0.0189
AGACGCAA: 0.135
CGGGCAAG: 0.168
TCACCCAA: -0.303
CTGAGTTC: -0.0644

Sample 2 — technique: protein-binding microarray; molecule type: double-stranded DNA, one strand shown; matrix: in vitro; concentration: 2540 nM top; notes: 60-bp whole probe; added: salmon DNA 0.4 mg/ml; baseline: random background probes; reading: higher = stronger binding; quantity: fitted relative affinity; constant ends, left off below: GCCTAGCAC … GTCTTGATTCGCTTGACGCTGCTG
Target: Interferon regulatory factor 3, full length, phosphomimetic (IRF3, Homo sapiens, UniProt Q14653, residues 1-427, S386D/S396D/S398D/S402D/T404D/S405D)
Construct (chain): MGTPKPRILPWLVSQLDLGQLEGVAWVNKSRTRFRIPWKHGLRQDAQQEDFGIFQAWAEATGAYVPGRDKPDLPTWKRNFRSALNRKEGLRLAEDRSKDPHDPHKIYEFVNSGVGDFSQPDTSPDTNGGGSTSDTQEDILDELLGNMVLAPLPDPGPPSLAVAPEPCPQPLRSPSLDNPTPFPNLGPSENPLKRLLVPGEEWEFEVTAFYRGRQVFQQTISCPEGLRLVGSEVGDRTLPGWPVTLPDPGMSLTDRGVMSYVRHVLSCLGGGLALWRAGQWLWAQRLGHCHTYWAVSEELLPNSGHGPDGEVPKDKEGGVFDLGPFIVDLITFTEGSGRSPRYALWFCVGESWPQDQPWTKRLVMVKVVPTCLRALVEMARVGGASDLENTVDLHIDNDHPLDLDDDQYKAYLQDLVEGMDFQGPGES
TCACTTGTGTTTATTGTACTGTGCTAG: 0.0593 z-score
TCAATTTTGGTTTTCTCACTGTGCTAG: 2.18 z-score
AACGATATCAGACTGGAGACGTGCTAG: 0.206 z-score
TGTGGCTTAGTTTGTCAAAAAGTGCTA: -0.42 z-score
TGCTTTCTTTAACTCATTTTGTGCTAG: 1.11 z-score
GACGAACTGAGACTGGGGACGTGCTAG: -0.321 z-score

Mixed results
AAAAAAAA (biotin)
signal ratio (Serine/arginine-rich splicing factor 1, RRM domains 1-2 (SRSF1, Homo sapiens, UniProt Q07955, residues 1-220); protein domain microarray; RNA, in vitro; not given, poly(A) 8-mer RNA, whole probe, immobilized GST-fusion domains, most near background; baseline: GST loading signal, higher = stronger binding): 0.0501

PhoQ, residues 284 288 289 292 302 303 HSYLQF
fold induction (PhoP, residues 12 14 15 18 19 VQALL (Escherichia coli, UniProt P23836); Sort-seq, refers to: YFP reporter; E. coli; PhoQ-PhoP variant library, added: 10 µM Mg2+; baseline: high Mg2+ state, higher = stronger signaling): 22.3

Some of these lines once more (sample 2):
AACGATATCAGACTGGAGACGTGCTAG: 0.206 z-score
GACGAACTGAGACTGGGGACGTGCTAG: -0.321 z-score
TGTGGCTTAGTTTGTCAAAAAGTGCTA: -0.42 z-score
